Measurements collected from several papers.
Compare with care: the assays were run in different laboratories. ± gives the spread as reported.
Target: Kappa-type opioid receptor (OPRK1, Homo sapiens, UniProt P41145)

Compound | assay | test system | conditions | endpoint | result
CC(C)[C@H]1CC[C@@H](N2CC[C@@](C)(c3cccc(O)c3)[C@@H](C)C2)CC1 | GTPγS binding, agonist, radiometric |  |  | EC50 | > 10000 nM
CC(C)C[C@H](NC(=O)[C@H](Cc1ccc2ccccc2c1)NC(=O)CNC(=O)[C@H](NC(=O)[C@@H](N)Cc1ccc(O)cc1)[C@H](C)O)C(=O)N[C@@H](CO)C(N)=O | GTPγS binding, agonist, radiometric |  | cell membranes | EC50 | > 1000 nM
CCc1cc(Cc2ccccc2)cc2c1NCCC2NC(=O)C(N)Cc1c(C)cc(O)cc1C (stereo not drawn) | ligand displacement, radioligand |  | cell membranes | Ki | 40 nM
Cc1cc(O)cc(C)c1C[C@H](N)C(=O)N[C@@H](C(=O)NCC(=O)N[C@@H](Cc1ccc2ccccc2c1)C(=O)N[C@@H](CC(C)C)C(=O)N[C@@H](CO)C(N)=O)[C@H](C)O | GTPγS binding, antagonist, radiometric |  | cell membranes | Kb | 63 nM
CC(=O)N1CCC(NC(=O)C(N)Cc2c(C)cc(O)cc2C)c2cc(CN3CCC4CCCCC4C3)ccc21 (stereo not drawn) | GTPγS binding, agonist, radiometric |  | cell membranes | EC50 | > 2000 nM
Cc1cc(O)cc(C)c1CC(N)C(=O)NC1CCNc2c(Cc3ccccc3)cc(Cc3ccccc3)cc21 (stereo not drawn) | ligand displacement, radioligand |  | cell membranes | Ki | 23 nM
CC[C@H](C)[C@H](NC(=O)[C@@H](N)Cc1ccc(O)cc1)C(=O)N[C@@H](Cc1ccccc1)C(=O)N[C@@H](CC(N)=O)C(=O)N[C@@H](CC(C)C)C(=O)O | [3H]EKC binding displacement, whole-cell radioligand binding | MCF7 | added: DADLE | IC50 | 0.159 ± 1.4e-12 nM
Cc1cc(O)cc(C)c1CC(N)C(=O)NC1CCNc2ccc(CN3CCC4CCCCC4C3)cc21 (stereo not drawn) | GTPγS binding, agonist, radiometric |  | cell membranes | EC50 | 600 nM
Cc1cc(O)cc(C)c1CC(N)C(=O)NC1CCNc2c1cc(Cc1ccccc1)cc2C(F)(F)F (stereo not drawn) | GTPγS binding, agonist, radiometric |  | cell membranes | EC50 | 580 nM

Excerpt of the above:
Compound | assay | test system | conditions | endpoint | result
CC[C@H](C)[C@H](NC(=O)[C@@H](N)Cc1ccc(O)cc1)C(=O)N[C@@H](Cc1ccccc1)C(=O)N[C@@H](CC(N)=O)C(=O)N[C@@H](CC(C)C)C(=O)O | [3H]EKC binding displacement, whole-cell radioligand binding | MCF7 | added: DADLE | IC50 | 0.159 ± 1.4e-12 nM
